Assay results pooled from the literature.
Parts stem from different laboratories: compare values within a part only.

Set 1
Target: Histone acetyltransferase KAT6A, winged helix 2, GST fusion (KAT6A, Homo sapiens, UniProt Q92794, residues 85-181)
Method: protein binding microarray
Form: double-stranded DNA, one strand shown
Matrix: in vitro
Concentration: not given
Setting: 8-mer, flanks averaged, mean of 2 arrays, mostly near background
Relative to: not given
Reading: higher = stronger binding
Residues (chain): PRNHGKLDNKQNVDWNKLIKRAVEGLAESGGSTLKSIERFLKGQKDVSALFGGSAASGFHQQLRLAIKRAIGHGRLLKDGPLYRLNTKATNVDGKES
| Oligonucleotide | E-score |
| --- | --- |
| CTGTTGAC | -0.0757 |
| ATTGCCCC | 0.0259 |
| ATAAACTC | 0.0906 |
| AACGTCTC | -0.116 |
| CCTATTCG | -0.0622 |
| ATGTCCAG | -0.0988 |

Set 2
Target: Sal-like protein 4, full length isoform B (SALL4, Homo sapiens, UniProt Q9UJQ4-2, residues 1-616)
Method: universal PBM
Form: double-stranded DNA, one strand shown
Matrix: in vitro
Concentration: not given
Setting: 8-mer, flanks averaged, mean of replicates
Reading: higher = stronger binding
| Oligonucleotide | E-score |
| --- | --- |
| AGGCGTCC | -0.227 |
| ACGGAGTA | -0.0303 |
| CAGGGATA | 0.0107 |
| ACGGCTAA | 0.0235 |
| CAGCGTTC | -0.142 |
| ATATGCCA | 0.12 |

Set 3
Target: Protein C-ets-1 (ETS1, Homo sapiens, UniProt P14921, residues 1-441, Y397A, full length assumed)
Method: protein-binding microarray
Form: double-stranded DNA, one strand shown
Matrix: in vitro
Concentration: not given
Setting: k-mer, scored over probes, only values ≥0.25
Reading: higher = stronger binding
Target sequence (chain): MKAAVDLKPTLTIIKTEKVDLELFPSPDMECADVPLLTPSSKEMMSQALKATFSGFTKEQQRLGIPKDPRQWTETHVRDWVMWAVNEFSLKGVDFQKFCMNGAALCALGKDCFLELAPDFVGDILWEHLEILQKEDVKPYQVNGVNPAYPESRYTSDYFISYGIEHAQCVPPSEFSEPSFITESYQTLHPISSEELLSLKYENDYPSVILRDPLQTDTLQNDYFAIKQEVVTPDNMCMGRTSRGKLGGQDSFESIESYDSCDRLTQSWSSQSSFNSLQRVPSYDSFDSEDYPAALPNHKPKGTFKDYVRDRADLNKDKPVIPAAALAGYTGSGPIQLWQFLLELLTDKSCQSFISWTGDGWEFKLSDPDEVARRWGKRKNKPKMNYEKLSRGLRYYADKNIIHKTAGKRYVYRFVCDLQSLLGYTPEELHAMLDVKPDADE
| Oligonucleotide | E-score |
| --- | --- |
| ATTTGCCA | 0.386 |
| CATCCGCG | 0.308 |
| AACGTACA | 0.258 |

Other studies, line by line
| Substance | target | assay | system | conditions | how to read | quantity | result |
| --- | --- | --- | --- | --- | --- | --- | --- |
| PhoQ, residues 284 288 289 292 302 303 SSTLLI | PhoP, residues 12 14 15 18 19 NQCAL (Escherichia coli, UniProt P23836) | Sort-seq, refers to: YFP reporter | E. coli | PhoQ-PhoP variant library, with: 10 µM Mg2+ | relative to: high Mg2+ state, higher = stronger signaling | fold induction | 1.24 |

Excerpt of the above (set 1):
| Oligonucleotide | E-score |
| --- | --- |
| ATAAACTC | 0.0906 |
| CCTATTCG | -0.0622 |
